Published values from different studies.
Compare with care: the assays were run in different laboratories. Several values in a cell are separate wells, animals, samples, runs or records. ± gives the spread as reported.
putA PRODH domain: putA, PRODH domain (Escherichia coli, UniProt P09546)
Chain of UniProt P09546 (whole entry, looked up): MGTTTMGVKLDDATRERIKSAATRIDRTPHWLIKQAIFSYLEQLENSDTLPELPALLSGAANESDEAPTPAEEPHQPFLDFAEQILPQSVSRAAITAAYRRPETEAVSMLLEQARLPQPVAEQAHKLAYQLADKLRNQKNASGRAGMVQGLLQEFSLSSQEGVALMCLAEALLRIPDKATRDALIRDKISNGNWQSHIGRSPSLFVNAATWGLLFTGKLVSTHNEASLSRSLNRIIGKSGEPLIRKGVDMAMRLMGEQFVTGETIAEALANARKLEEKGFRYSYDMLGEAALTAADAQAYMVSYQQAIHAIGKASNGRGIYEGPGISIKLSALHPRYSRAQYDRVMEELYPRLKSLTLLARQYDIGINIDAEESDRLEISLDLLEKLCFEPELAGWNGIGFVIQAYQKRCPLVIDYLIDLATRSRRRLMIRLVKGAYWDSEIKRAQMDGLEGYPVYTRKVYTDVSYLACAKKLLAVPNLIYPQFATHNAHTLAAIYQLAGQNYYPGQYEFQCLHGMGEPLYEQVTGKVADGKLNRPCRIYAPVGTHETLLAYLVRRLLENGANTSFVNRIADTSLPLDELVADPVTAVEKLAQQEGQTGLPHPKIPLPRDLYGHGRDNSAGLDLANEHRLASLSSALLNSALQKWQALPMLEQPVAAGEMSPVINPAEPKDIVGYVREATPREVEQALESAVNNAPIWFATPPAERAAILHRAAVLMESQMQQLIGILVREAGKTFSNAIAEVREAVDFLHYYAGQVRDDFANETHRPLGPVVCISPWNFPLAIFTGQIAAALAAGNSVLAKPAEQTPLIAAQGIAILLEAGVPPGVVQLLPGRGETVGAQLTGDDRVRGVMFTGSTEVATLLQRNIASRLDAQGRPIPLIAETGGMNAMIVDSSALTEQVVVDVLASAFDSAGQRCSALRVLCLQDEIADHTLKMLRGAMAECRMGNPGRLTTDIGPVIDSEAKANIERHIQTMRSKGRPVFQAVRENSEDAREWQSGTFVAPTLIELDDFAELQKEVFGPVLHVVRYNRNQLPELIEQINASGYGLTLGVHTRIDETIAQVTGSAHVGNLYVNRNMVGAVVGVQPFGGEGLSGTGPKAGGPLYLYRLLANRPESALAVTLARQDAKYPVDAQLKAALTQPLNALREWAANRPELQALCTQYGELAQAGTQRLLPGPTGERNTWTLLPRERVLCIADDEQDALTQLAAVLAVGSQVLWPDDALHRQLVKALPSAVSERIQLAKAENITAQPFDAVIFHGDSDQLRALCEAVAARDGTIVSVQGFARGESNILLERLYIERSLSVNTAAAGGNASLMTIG
Sigma-2 receptor/TMEM97: Sigma-2 receptor/TMEM97 (Cavia porcellus, UniProt H0V073)
OPRM1: Mu-type opioid receptor (OPRM1, Homo sapiens, UniProt P35372)
Chain of UniProt P35372 (whole entry, looked up): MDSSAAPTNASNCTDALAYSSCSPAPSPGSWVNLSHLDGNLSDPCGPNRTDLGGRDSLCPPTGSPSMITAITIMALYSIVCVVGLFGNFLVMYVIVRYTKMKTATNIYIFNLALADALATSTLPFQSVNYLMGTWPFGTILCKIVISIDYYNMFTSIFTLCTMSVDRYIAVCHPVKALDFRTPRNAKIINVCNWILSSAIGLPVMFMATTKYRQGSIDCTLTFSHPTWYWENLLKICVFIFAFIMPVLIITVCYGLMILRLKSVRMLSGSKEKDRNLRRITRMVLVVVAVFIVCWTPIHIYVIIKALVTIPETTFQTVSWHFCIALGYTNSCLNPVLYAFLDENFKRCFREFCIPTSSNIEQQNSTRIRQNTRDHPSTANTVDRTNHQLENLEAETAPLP
Oprm1: Mu-type opioid receptor (Oprm1, Mus musculus, UniProt P42866)
Glutamate receptor ionotropic, kainate 1: Glutamate receptor ionotropic, kainate 1 (Rattus norvegicus, UniProt P22756)
Chain of UniProt P02730 (whole entry, looked up): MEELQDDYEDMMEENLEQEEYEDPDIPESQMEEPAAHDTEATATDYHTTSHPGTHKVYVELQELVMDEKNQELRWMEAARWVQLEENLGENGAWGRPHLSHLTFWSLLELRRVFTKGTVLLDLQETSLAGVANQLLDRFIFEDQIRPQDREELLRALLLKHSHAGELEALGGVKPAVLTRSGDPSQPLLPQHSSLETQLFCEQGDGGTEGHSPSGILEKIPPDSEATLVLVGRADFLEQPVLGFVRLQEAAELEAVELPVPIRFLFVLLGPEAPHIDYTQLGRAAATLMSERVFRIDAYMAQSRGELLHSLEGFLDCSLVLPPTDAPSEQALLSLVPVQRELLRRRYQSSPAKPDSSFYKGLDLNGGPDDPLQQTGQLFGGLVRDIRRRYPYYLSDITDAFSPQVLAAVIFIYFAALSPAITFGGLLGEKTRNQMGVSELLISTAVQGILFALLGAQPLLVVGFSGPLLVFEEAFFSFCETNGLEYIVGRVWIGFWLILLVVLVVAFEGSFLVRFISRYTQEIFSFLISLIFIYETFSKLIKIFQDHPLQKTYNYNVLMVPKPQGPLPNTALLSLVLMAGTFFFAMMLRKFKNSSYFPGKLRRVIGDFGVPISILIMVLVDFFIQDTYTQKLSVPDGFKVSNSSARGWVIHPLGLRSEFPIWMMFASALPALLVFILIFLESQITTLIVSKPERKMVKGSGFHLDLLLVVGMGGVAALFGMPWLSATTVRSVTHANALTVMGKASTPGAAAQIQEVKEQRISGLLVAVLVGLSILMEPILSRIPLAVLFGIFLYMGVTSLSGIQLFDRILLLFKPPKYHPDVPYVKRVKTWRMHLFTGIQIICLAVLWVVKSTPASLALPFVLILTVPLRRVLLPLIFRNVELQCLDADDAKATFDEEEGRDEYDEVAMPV
Chain of UniProt Q8VD00 (whole entry, looked up): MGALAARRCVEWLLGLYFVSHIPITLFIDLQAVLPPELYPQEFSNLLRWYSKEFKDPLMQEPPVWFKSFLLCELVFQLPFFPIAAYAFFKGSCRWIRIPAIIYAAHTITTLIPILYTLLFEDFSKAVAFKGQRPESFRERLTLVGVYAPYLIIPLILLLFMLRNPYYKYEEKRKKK
Chain of UniProt P22756 (whole entry, looked up): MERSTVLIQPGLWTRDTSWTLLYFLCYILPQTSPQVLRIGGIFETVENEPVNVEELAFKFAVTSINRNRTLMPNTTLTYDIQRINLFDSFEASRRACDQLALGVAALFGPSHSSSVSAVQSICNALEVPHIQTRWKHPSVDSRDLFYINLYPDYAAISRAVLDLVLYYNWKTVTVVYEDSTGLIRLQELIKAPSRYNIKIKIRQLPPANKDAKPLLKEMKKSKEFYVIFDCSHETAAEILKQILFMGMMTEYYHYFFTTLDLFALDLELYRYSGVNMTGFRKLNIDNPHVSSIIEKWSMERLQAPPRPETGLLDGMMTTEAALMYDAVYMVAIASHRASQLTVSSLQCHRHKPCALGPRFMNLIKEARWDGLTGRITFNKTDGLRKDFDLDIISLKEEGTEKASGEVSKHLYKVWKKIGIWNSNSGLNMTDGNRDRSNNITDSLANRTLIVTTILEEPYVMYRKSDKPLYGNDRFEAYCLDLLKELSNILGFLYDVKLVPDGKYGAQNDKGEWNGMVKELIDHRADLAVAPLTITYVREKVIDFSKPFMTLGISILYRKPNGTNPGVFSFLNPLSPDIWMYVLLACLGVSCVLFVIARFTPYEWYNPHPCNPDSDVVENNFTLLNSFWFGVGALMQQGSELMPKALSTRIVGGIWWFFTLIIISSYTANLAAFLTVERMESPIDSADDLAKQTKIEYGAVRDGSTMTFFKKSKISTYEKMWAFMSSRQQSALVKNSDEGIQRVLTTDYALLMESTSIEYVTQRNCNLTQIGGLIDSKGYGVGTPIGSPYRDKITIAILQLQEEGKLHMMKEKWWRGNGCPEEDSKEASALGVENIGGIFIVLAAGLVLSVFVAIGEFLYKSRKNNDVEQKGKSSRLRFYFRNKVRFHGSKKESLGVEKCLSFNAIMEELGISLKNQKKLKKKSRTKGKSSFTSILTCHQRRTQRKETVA
Chain of UniProt P77488 (whole entry, looked up): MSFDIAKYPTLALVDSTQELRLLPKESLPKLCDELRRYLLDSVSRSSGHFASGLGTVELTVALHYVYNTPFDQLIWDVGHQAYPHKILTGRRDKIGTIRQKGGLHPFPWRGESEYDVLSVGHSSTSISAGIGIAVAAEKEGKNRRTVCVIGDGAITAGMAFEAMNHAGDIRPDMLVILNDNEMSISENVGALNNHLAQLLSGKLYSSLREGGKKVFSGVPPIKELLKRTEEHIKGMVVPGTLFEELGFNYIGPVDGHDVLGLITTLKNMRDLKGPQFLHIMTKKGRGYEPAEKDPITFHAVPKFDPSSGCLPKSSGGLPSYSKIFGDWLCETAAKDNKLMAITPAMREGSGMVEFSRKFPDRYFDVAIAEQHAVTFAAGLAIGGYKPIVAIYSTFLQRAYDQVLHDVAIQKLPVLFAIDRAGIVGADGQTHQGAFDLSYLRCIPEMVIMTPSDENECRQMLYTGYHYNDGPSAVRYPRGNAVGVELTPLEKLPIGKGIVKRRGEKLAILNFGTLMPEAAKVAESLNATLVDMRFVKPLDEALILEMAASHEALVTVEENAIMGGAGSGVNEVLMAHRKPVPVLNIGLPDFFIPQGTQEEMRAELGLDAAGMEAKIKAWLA
Chain of UniProt Q5U3Y7 (whole entry, looked up): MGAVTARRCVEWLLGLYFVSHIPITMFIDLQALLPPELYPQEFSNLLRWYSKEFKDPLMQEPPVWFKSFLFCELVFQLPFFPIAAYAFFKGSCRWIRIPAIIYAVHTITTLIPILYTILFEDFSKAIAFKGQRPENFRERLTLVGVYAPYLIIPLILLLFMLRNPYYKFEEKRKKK
Chain of UniProt Q9R0C9 (whole entry, looked up): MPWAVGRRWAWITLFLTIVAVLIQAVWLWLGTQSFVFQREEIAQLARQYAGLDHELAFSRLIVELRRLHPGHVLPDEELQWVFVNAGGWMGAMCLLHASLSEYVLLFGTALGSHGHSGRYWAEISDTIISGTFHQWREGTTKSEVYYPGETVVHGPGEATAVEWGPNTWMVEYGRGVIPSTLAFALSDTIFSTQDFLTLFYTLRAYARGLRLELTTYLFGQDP
Chain of UniProt Q60492 (whole entry, looked up): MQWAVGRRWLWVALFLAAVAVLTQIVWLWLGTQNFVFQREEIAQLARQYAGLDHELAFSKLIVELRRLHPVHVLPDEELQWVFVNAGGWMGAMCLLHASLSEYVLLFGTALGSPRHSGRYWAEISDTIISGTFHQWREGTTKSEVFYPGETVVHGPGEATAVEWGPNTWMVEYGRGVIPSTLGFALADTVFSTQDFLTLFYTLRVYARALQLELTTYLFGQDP

`Cc1ccc2c(c1)C1CN(C)CCC1N2C(=O)CSc1nnnn1-c1ccc(Cl)cc1` (centres unmarked) has a Ki of 1.26 µM (Tmem97 (Mus musculus, UniProt Q8VD00); ligand displacement, radioligand; cell membranes).
The Ki of `O=C(O)C1CCCC1` is reported as 6300 ± 700 µM (putA PRODH domain; competitive inhibitor; pH 7.5, room temperature, together with: L-proline).
The Ki of `CN1CCN(CCc2ccc(Cl)c(Cl)c2)CC1` is reported as 0.625 µM (Sigma-2 receptor/TMEM97; binding; guinea pig brain; sigma-2 site, high-affinity site, together with: 3 nM [3H]DTG, (+)-pentazocine).
`COP(=O)(O)C(C)=O` has a Ki of 3.24 µM (dxs (Escherichia coli, UniProt P77488); enzyme activity, inhibitor).
The Ki of `CCCCCCCCCCCCCCC[C@@H](O)[C@@H](N)CO` is reported as 0.07 µM (SIGMAR1 (Cavia porcellus, UniProt Q60492); ligand displacement, radioligand).
`O[C@@H]1CNC=Nc2c1ncn2[C@H]1C[C@H](O)[C@@H](CSc2ccccc2)O1` gave a Ki of 0.00013 ± 9e-06 µM (MTA/SAH deaminase (Pseudomonas aeruginosa, UniProt Q9HZ64); inhibitor; pH 7.4, 25 °C, together with: MTA 100 µM).
`O=C(/C=C/c1ccoc1)N[C@@H]1CC[C@@]2(O)[C@H]3Cc4ccc(O)c5c4[C@@]2(CCN3CC2CC2)[C@H]1O5` has a Ki of 0.00474 ± 0.00085 µM (Oprd1 (Mus musculus, UniProt P32300); binding, radioligand displacement; together with: [3H]diprenorphine).
For `NCCCC[C@H](NC(=O)[C@H](Cc1c[nH]c2ccccc12)NC(=O)[C@H](CCCCN)NC(=O)CNC(=O)CCC(=O)N/N=C/c1ccc(/C=N/NC(=O)CCC(=O)NCC(=O)N[C@@H](CCCCN)C(=O)N[C@@H](Cc2c[nH]c3ccccc23)C(=O)N[C@@H](CCCCN)C(N)=O)cc1)C(N)=O`, the Ki was 0.392 ± 0.0244 µM (Tryptase beta-2 (TPSB2, Homo sapiens, UniProt P20231); non-competitive inhibitor).
The Ki of `COc1cc2c(cc1OCCCF)CCN1CC(CC(C)C)C(C3CO3)CC21` (racemic) is reported as 0.00015 ± 1e-05 µM (Slc18a2 (Rattus norvegicus, UniProt Q01827); binding; rat striatal homogenate; together with: [3H](±)-tetrabenazine).
`C[C@H]1CN(C[C@H]2Cc3ccc(O)cc3CN2)CC[C@@]1(C)c1cccc(O)c1` gave a Ki of 0.03 µM (OPRM1; ligand displacement, radioligand).
`O=C(O)[C@H]1O[C@H](OP(=O)(O)OP(=O)(O)OC[C@H]2O[C@@H](n3ccc(=O)[nH]c3=O)[C@H](O)[C@@H]2O)[C@H](O)[C@@H](O)[C@@H]1O` has a Ki of 5.3 µM (P2Y purinoceptor 14 (P2RY14, Homo sapiens, UniProt Q15391); ligand displacement).
`COc1ccc(CCN2CCN(C/C=C/I)CC2)cc1OC` has a Ki of 1.45 µM (Tmem97 (Mus musculus, UniProt Q8VD00); ligand displacement, radioligand; cell membranes).
`CN(C(=O)/C=C/c1ccoc1)[C@H]1CC[C@@]2(O)[C@H]3Cc4cccc5c4[C@@]2(CCN3CC2CC2)[C@H]1O5` gave a Ki of 0.00959 µM (Oprm1; ligand displacement, radioligand).
`CCCC[C@H](NC=O)C(=O)N[C@@H](CC(C)C)C(=O)N[C@@H](Cc1ccccc1)C(=O)O` gave a Ki of 0.16 ± 0.025 µM (FPR1 (Homo sapiens, UniProt P21462, R190W); binding, inhibitor).
`O=C(/C=C/c1ccoc1)N[C@H]1CC[C@@]2(O)[C@H]3Cc4cccc5c4[C@@]2(CCN3CC2CC2)[C@H]1O5` has a Ki of 0.0873 µM (Oprm1; ligand displacement, radioligand).
`CCCc1ccc2c(c1)sc(=O)n2CCN1CCCCCC1` gave a Ki of 0.248 ± 0.015 µM (Tmem97 (Rattus norvegicus, UniProt Q5U3Y7); radioligand binding; rat liver membranes; together with: [3H]DTG 5 nM, (+)-pentazocine 300 nM).
The tracer uptake of `CN[C@@](C)(C[18F])C(=O)O` is reported as 2.3 %ID/g (MDA-MB-468 tumour model; host not given, blood; 15 min, tumour-bearing).
`Nc1ccccc1C(=O)O` has a Ki of 4.72 µM (mushroom tyrosinase; diphenolase activity, inhibitor; pH 6.8, 20 °C, together with: caffeic acid substrate).
For `O=C(O)C[C@H]1CCN[C@@H]1C(=O)O`, the Ki was 2.8 µM (Glutamate receptor ionotropic, kainate 1; ligand displacement, radioligand).
`CCCCCCCC(=O)O[C@H]1/C(=C/C(=O)OC)C[C@H]2C[C@H]([C@@H](C)O)OC(=O)CCCC(=O)OCC(C)(C)[C@]1(O)O2` has a Ki of 0.283 µM (PRKCQ (Homo sapiens, UniProt Q04759); ligand displacement, radioligand).
The Ki of `CC=O` is reported as 1100 µM (ADH1 (Saccharomyces cerevisiae, UniProt P00330, H45R/H49Q); product inhibition slope, inhibitor; pH 7.3, 30 °C).
`C[C@@H]1O[C@@H](O[C@H]2C[C@@H](O)[C@]3(CO)[C@H]4[C@H](O)C[C@]5(C)[C@@H](C6=CC(=O)OC6)CC[C@]5(O)[C@@H]4CC[C@]3(O)C2)[C@H](O)[C@H](O)[C@H]1O` gave a Ki of 0.9 ± 0.06 µM (ATP1A1 (Sus scrofa, UniProt P05024); enzyme activity; purified pig kidney enzyme; 1% DMSO).
The Ki of `CN(CCOCCCc1ccccc1)Cc1ccccc1` is reported as 2.76 to 3.04 µM (OPRM1).
The Ki of `CN1CC[C@@]23C[C@@H]1CC[C@H]2Oc1ccc(O)cc13` (racemic) is reported as over 10 µM (OPRK1 (Homo sapiens, UniProt P41145); cell-free assay, radioligand).
For `O=P(O)(O)Oc1cccc(OP(=O)(O)O)c1`, the Ki was 24 µM (Signal transducer and activator of transcription 5A, SH2 (Homo sapiens, UniProt P42229); ligand displacement, FP).
With `CC[C@H](C)CN(C[C@@H](O)[C@H](Cc1ccccc1)NC(=O)[C@@H](NC(C)=O)[C@@H](C)CC)S(=O)(=O)c1ccc2ncsc2c1` the Ki was 0.000376 ± 0.000168 µM (Gag-Pol polyprotein, protease (Human immunodeficiency virus type 1 group M subtype B, UniProt P03369, G538V/I544V/L500I/V572A)).
`CC(C)[C@@H](CN1CCC(c2cccc(O)c2)CC1)NC(=O)[C@H]1Cc2ccccc2CN1` gave a Ki of 0.164 µM (OPRM1; ligand displacement, radioligand).
For `Nc1ncnc2c1ncn2[C@H]1C[C@H](O)[C@@H](COP(=O)(O)NP(=O)(O)OP(=O)(O)O)O1`, the Ki was 0.207 µM (SAMHD1 (Homo sapiens, UniProt Q9Y3Z3); enzyme activity, inhibitor).
`c1ccc(CCN2CCCCC2)cc1` has a Ki of 0.03 µM (Sigmar1 (Rattus norvegicus, UniProt Q9R0C9); ligand displacement, radioligand).
`O=C(O)COP(=O)(O)O` has a Ki of about 0.012 µM (Triosephosphate isomerase, glycosomal (Trypanosoma brucei brucei, UniProt P04789); enzyme activity, competitive inhibitor; extrapolated, Glu-167 fully protonated, together with: glyceraldehyde 3-phosphate).
With `Nc1nc(Cl)nc2c1ncn2[C@H]1C[C@H](O)[C@@H](CO)O1` the Ki was 15.1 µM (ADORA2A (Homo sapiens, UniProt P29274); ligand displacement, radioligand; cell membranes).
For `CCCC[C@]1(C(=O)O)C[C@H]1[C@H](N)C(=O)O.Cl`, the Ki was over 100 µM (kainate receptor, rat; [3H]kainate displacement; cortical synaptosomes).
`CCCCN1C(=O)C(C=CC=CC=C2C(=O)N(c3ccc(S(=O)(=O)O)cc3)N=C2C)C(=O)N(CCCC)C1=O` gave a Ki of 0.716 µM and 0.72 µM (SLC4A1 (Homo sapiens, UniProt P02730); 36Cl exchange flux, inhibitor, extrapolated to zero chloride; human erythrocytes; 0 °C, unloaded forms, short exposure).
The Ki of `COc1cc(O)c2c(c1)oc(=O)c1c3cc(O)c(O)cc3oc21` is reported as 8.4 µM (Genome polyprotein, NS5B polymerase (Hepatitis C virus genotype 1b, UniProt P26663); RNA polymerase activity, noncompetitive inhibitor vs UTP; together with: UTP 2.5 to 80 µM varied, poly rA/U12 0.25 µM).
For `NC(=O)CC[C@H](N)C(=O)O`, the Ki was 0.85 ± 0.08 µM (anandamide membrane transporter rat; [3H]anandamide uptake, non-competitive inhibitor; brain synaptosomes).
The Ki of `CCCN(CCC1(O)CC(NS(=O)(=O)c2ccccc2)C1)[C@H]1CCc2nc(N)sc2C1` (stereo in doubt) is reported as 57 ± 2.83 µM (dopamine D1-like receptor, rat; radioligand binding; rat striatal membranes; together with: [3H]SCH23390).
The Ki of `CN(C(=N)Nc1cccc2ccccc12)c1cc(C(F)(F)F)ccc1F` is reported as 0.00129 ± 3e-05 µM (NMDA receptor PCP site, rat; radioligand binding; rat brain homogenate; 2 h, 23 °C, together with: [3H](+)-MK-801 0.50 nM, L-glutamate 100 µM, glycine 30 µM).
`Nc1cc(C(=O)O)cc([C@H]2CCN[C@@H]2C(=O)O)c1` (racemic) gave a Ki of 32.7 µM (Glutamate receptor ionotropic, kainate 1; ligand displacement, radioligand; cell membranes).
For `CCCN(CCC1(O)CC(NS(=O)(=O)c2ccc(F)c(Cl)c2)C1)[C@H]1CCc2nc(N)sc2C1` (stereo in doubt), the Ki was 2.42 ± 0.118 µM (dopamine D2-like receptor, rat; radioligand binding; rat striatal membranes; high-affinity component, together with: [3H]spiperone).
The Ki of `COc1cc(O)c2c(O)c3c(=O)cc(C)oc3cc2c1` is reported as 4.92 µM (MAOA (Homo sapiens, UniProt P21397); inhibitor; competitive, free enzyme).
The Ki of `CC(C)c1ccc(O)c(=O)c(O)c1` is reported as 0.14 µM (Gag-Pol polyprotein, reverse transcriptase (gag-pol, Human immunodeficiency virus 1, UniProt P03366); enzyme activity, inhibitor, FRET).
`O=C(O)[C@@H]1CCO1` has a Ki of ~1500 µM and 1400 µM (putA PRODH domain; competitive inhibitor; pH 7.5, room temperature, together with: L-proline).
The Ki of `N[C@H](CCC(=O)O)C(=O)O` is reported as 1.1 ± 0.09 µM (anandamide membrane transporter, mouse; [3H]anandamide uptake, non-competitive inhibitor; mouse brain synaptosomes).
For `CN(C)CCN(C)CCc1ccc(Cl)c(Cl)c1`, the Ki was 55.3 µM (Sigma-2 receptor/TMEM97; binding; guinea pig brain; low-affinity site, two-site fit, together with: [3H]DTG 3 nM with (+)-pentazocine 200 nM).

For quick reference, copied from above:
`CC(C)[C@@H](CN1CCC(c2cccc(O)c2)CC1)NC(=O)[C@H]1Cc2ccccc2CN1` gave a Ki of 0.164 µM (OPRM1; ligand displacement, radioligand).
For `Nc1ncnc2c1ncn2[C@H]1C[C@H](O)[C@@H](COP(=O)(O)NP(=O)(O)OP(=O)(O)O)O1`, the Ki was 0.207 µM (SAMHD1 (Homo sapiens, UniProt Q9Y3Z3); enzyme activity, inhibitor).
`c1ccc(CCN2CCCCC2)cc1` has a Ki of 0.03 µM (Sigmar1 (Rattus norvegicus, UniProt Q9R0C9); ligand displacement, radioligand).
